Published values of several laboratories.
Every numbered part comes from another study and shows a few of its results, in no order. Substitutions count along the parent as printed.

Series 1 — target: UBE2B UBC core domain (UniProt P63146); method: yeast two-hybrid; sample: yeast; setting: mostly zero background; reference: not given; reading: higher = stronger interaction
Sequence of UniProt P63146 (whole entry, looked up): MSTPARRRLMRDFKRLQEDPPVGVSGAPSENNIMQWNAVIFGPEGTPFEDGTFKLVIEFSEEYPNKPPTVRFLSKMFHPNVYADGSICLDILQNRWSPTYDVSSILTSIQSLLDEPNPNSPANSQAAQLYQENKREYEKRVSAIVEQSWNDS
B1: RNF186 RING domain (UniProt Q9NXI6); chain HSGSTECDLECLVCREPYSCPRLPKLLACQHAFCAICLKLLLCVQDNTWSITCPLCRKVTAVPGGLI
B2: ZMYND11 RING domain (UniProt Q15326); chain DEIDWETENHDWYCFECHLPGEVLICDLCFRVYHSKCLSDEFRLRDSSSPWQCPVCRSIKKKNTNKQEM
B3: TRIM41 RING domain (UniProt Q8WV44); chain PVQTLQEEAVCAICLDYFTDPVSIGCGHNFCRVCVTQLWGGEDEEDRDELDREEEEEDGEEE
B4: ARIH2 RING domain (UniProt O95376); chain HVPTSHPPHHCAVCMQFVRKENLLSLACQHQFCRSCWEQHCSVLVKDGVGVGVSCMAQDCPLRTPEDFVF
B5: BFAR RING domain (UniProt Q9NZS9); chain GPQISVSEFSCHCCYDILVNPTTLNCGHSFCRHCLALWWASSKKTECPECREKWEGFPKVS
B6: VPS8 RING domain (UniProt Q8N3P4); chain TRGLNPKQDYCSICLQQYKRRQEMADEIIVFSCGHLYHSFCLQNKECTVEFEGQTRWTCYKCSSSNKVGKLSE
Molecule	lacZ reporter activity
ASPKIFQKTKCSICNSALELPSVHFLCGHSFHQHCFESYSESDADCPTCLPENRKVMDMI (VPS11 RING domain (UniProt Q9H270))	0
B1 (RNF186 RING domain)	0
B2 (ZMYND11 RING domain)	0
B3 (TRIM41 RING domain)	0
B4 (ARIH2 RING domain)	0
B5 (BFAR RING domain)	0
B6 (VPS8 RING domain)	0

Series 2 — method: RNA Bind-n-Seq; form: RNA; sample: in vitro; tested at: 365 nM; reference: no-protein control; reading: higher = stronger binding
Target: RNA binding protein fox-1 homolog 2, RRM domain, GST-SBP tag (RBFOX2, Homo sapiens, UniProt O43251-10, residues 100-194)
Setting: natural RNA segment, single round, ends assumed
Residues (chain): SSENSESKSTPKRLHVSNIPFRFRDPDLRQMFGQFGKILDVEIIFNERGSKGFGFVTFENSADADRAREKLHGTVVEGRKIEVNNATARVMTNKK
Sequence	RBNS enrichment (R)
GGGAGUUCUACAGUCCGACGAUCUUCUGUGUUUGAAGUAUGUGCAUAUGUGCUUUACAGAAUAAAACAUCUGGAUUUACUUGGUUUGCCGUUUUAAUUCCAGCCGGAUUGGUGUUCUUUAAACAAAAAGUAGGUGGAAUUCUCGGGUGCCAA	0.418
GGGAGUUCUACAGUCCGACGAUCACUGUAAUAUUUCAAGUGUAUGCAGUAGAAUGUACUGUAACUGAGCCCUUUCCCACAUGUCUAGGCUCCAAUGUCUCCUGUAGGUCCACCUAACUGUGUGUUUUCAGGGAUGGAAUUCUCGGGUGCCAA	0.357
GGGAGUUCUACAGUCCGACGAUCUUUUUAAUUUAAAGAUAAAAGCCUGUGUUUUACACAUUCUUUUUUGGUGUUCAUAGCUUCUUCUCAUACAGGUGCCAGACACUGUUUGUGCUUUUGAUGGAUUUUUAUUUUGGAAUUCUCGGGUGCCAA	0.465
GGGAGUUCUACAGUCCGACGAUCGUUUUAAGGUGGAAAAUUUUCUUACAGUUGAUGCAAAGUAUCAACUACUUUACCCUACCUUCUCCCCUUUUAGAUGGGUUCUUCCUGAGUUUUGGAGUCUUGUAUGAUUAUGGAAUUCUCGGGUGCCAA	0.437
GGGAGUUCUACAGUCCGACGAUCUAAGAAAUAAGAAUUCCCAGGGUUACUCACCCAUGCGUAAGCUACCCAAGUUUAAUUUGGUAGCUGAAAUAUCUUUUUGCCUCAGACAGCUCUUGAAUUGCUCAUACAGAUGGAAUUCUCGGGUGCCAA	0.333
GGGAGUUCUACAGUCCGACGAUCUGUUUUGAAAAUCUCAAUUUUAAUCAGGGGUUUUAAAAGAAAAUUGAAAGCCUGAACCUCCAUUUUUCUUCUUGGCUCCAGUUUUGCUGGUCCUCUGGAGAACUCUUCGUUGGAAUUCUCGGGUGCCAA	0.382
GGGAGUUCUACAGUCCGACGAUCGCAAGGCUGCUGGUCACUUGAAGCUUUACUCUACAAAUGGGAUAUGAAAUGUGUCCACAUUCCUCUUGAGUCUUUUGAUGCAGACAAAGAAGAUAUAGCAGAAUCUACCCUGGAAUUCUCGGGUGCCAA	0.477
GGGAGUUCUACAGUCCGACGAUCAUAUUGUGCUAUGAUAACCAACCUUCUUCCAAGGAGUGACCAUUACUGCCUACAUUUGCGUUGCUUUCUACAUAGAGACUUGUAUAAUAGUAUUAAUAGUAGCUCAUUCUUGGAAUUCUCGGGUGCCAA	0.331
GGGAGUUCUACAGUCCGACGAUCAUUCACCUAGACUUUUUUAGAUUUACUACUAGGAAACCUUCCUCAUAUGAAUAACCAUUUAUAUGUGUUUUGCUUAAAGUAUUCCAAUGCCUAUUUUCCAAGCACAGUUCUGGAAUUCUCGGGUGCCAA	0.534
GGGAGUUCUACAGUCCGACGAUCAGAACGUGAUUUCCAGUGAUCUCUGGAAGCGCUAAAGCUAAAAUUUCUGUUCUUGAAACACUUCAGCUUUGCAACUAAAAUAUUACAGAUUAAUAAUAAAUUAAACCAACUGGAAUUCUCGGGUGCCAA	0.564
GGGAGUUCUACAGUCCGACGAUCAGUACUGUCCUAACCCUGGCUUUUCAGUUAAUGUUUCCAUCUGUGAAGCUUGGAAACACAGCUGGGAAGUUUGUAUUCAUUUACUUAGUAGAUAUGUGCAGAGCUCCUUGUGGAAUUCUCGGGUGCCAA	0.219
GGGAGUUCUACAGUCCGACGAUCACUGAUGAUUCCUGCAAAAAUAUAAUCGAAGUUUUCCAUCAAAUGUAUAAUAUGCUAUUAAUACACAUUAGAUGAUAACAGUUGUUCCAUGAAUGAUUCUAUGAAGCUAUUGGAAUUCUCGGGUGCCAA	0.616

Series 3 — target: CCND1, cyclin fold, Cln2 fusion (human); method: yeast growth competition, sequencing; sample: yeast; setting: weak parent motif; reference: not given; reading: higher = stronger binding
Starting sequence: MICAL3 docking peptide (human); LQLRRQLSFSEDS
Variant	normalised enrichment score
R5T	-0.117
E11V	-0.149
R5P	0.223
F9H	-0.369
S10Y	0.102
R5I	0.0584
E11F	-0.0722
S10E	0.851
F9D	-0.133
S10T	0.492
R4V	0.24
Q2R	-0.0371
Q6E	0.462
S10D	0.653
R4P	0.422
Q6W	0.24

Series 4 — method: RNA Bind-n-Seq; form: RNA; sample: in vitro; tested at: not given; reference: input RNA pool; reading: higher = stronger binding
Target: RING finger protein unkempt homolog, zinc fingers 1-6, GST-SBP tag (UNK, Homo sapiens, UniProt Q9C0B0, residues 30-357)
Setting: RNA with constant flanks, human and mouse sites, ends assumed
Residues (chain): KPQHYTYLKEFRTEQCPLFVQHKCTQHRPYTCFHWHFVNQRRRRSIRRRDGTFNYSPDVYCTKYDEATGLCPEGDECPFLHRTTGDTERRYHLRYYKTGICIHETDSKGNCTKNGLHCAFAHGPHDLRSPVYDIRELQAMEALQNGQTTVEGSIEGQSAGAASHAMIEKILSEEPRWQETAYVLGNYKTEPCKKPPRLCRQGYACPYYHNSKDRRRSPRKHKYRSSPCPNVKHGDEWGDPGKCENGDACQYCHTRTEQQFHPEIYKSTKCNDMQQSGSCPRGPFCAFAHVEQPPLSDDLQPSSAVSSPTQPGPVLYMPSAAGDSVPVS
Sequence	bound/input enrichment [ratio]
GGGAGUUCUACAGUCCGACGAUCAUUUUGUGCCAGUCACUCCUAGAAAAUCUAGACAAGCUUCCUGGAGAUUCACGAACAAGAAUAGGAUUCAUGACCUUUGAUAGCACUAUUCAUUUCUACAAUUUACAAGAAGGAUUAUCACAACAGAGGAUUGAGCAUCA	0.371
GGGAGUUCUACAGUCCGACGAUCUCACAGCUAGGGAGAAAGAAGUGAUACCGGAAAAGAAAACCUAAAUGAAGAGAAUGAGGAUGACUGCACAGUAGAUGGCCACCUCUACCUCCACAGAGGCAAAGUCAGCCUCGUGGUGGACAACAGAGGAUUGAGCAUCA	0.658
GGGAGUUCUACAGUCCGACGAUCGAAGAGAAUAAACUCAUCUACACACCUAUUUUUAAUGAAUACAUUUCUUUGGUAGAAAAAUACAUUGAAGAACAGCUGCUGCAGCGGAUUCCUGAGUUCAACAUGGCAGCCUUCACCACACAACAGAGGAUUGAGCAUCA	0.519
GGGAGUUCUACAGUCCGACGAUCUCUCCAAACCAGUAUUAUUUCAAUUAUGGCACUUGGGAGUGGGGUGAGAGCUAAACAUUGCACAGGGAAAGAAAAAAAAUAACUGCACUGACUUUAUAUCUUUUGAAUAUAAUUACUGUGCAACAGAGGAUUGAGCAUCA	0.718
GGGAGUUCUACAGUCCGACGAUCGUUGAUUCCCUCAACGGGUUAGUUUACGUAGCCCAAAGAGGGGAUAACAUCCCCAAGGUAUUAGUGUUCUCAGAGGAUGGCUAUUUCCUACGAGCCUGGAAUUAUACAGUUGACACACCCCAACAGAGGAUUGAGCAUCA	0.176
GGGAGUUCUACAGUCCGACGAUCCAAACCUGCAAUCCUGGAGAAGUAGGGCGAACAGAUAAGGAAAGAAAAAAAUUGAAGUAGGACUUUGGGGCCAAGGGGAGUUCUUUCAAUGCACUCCCCCUUUCUCCCCACCGCCACAGCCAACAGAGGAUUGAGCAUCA	0.511
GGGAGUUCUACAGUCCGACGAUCAAUUCCAUUGCAAACUUUUUCCGUUUGCUAUCUCAGGGAGGUGGAAAAAUCAAGGUUGAGAUUUUGAAAAUCCUUUCGAAUUUUGCUGAAAAUCCAGAUAUGUUGAAGAAACUUCUCAGUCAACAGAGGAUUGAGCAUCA	0.085
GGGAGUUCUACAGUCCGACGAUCUACUGGAGUGGAUAUAUGUGUGUACCUGUGUGUGUUUGUAUAAAUAUAUGUGUAAUCCAAAAGUCAGUAAUGGUAAUUUAUUAAUGGUUAAACUAUAUAUGUUGUCUCAAUUUUACAGCCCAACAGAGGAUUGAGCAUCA	1.4
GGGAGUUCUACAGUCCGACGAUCGCUACUUUUGUUUUAGAGAAUUUCAGCACUUUGCGUCAGAGAGCAGAUCCUGUUUACAGUCCACCUCUUCAAGUUUCAGGACUUUGCUGGAGGUUAAAAGUUUACCCAGAUGGAAAUGGACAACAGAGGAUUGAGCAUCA	0.351
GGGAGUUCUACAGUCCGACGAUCUAGGCGUGAGGCUGUGGACUUUGCGGAAUGUUUCGGGGUUUUAUUUUGGUUUUUUGUUUUUCCUUUUUUUUUUUUUUUUUUAAACAAACAAACAAACCGGGCAAUAUUGUGUUCAGUUCACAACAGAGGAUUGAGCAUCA	3.38
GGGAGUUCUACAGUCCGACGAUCAAACAAGCCUUUGAAAGAUGUCAUAGGCUUUCUGAUCCUUCUGAUUUACCAAGGAAUGCCUUUAGAAUUUUUACCAUUCUUGUGGAAUUUUUAUGUAUUGAGCAUAUUGAUUAUGCUUUACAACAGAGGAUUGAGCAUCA	4.28

Excerpt of the above (series 3):
Variant	normalised enrichment score
S10Y	0.102
R5I	0.0584
E11F	-0.0722
S10E	0.851
F9D	-0.133
